Values quoted from earlier work that unrelated publications cite.
Numbered parts are unrelated; values within a part may stem from several laboratories. pIC50, pKd, pKi: −log10 of the molar value.

Block 1
Organism: Cryptosporidium parvum
Technique: high-throughput screen
Tested at: concentration not given
Quantity: activity
Cc1cc2c(s1)Nc1ccccc1N=C2N1CCN(C)CC1: inactive
CCCCc1nc(Cl)c(CO)n1Cc1ccc(-c2ccccc2-c2nn[nH]n2)cc1: inactive
CN1CC(=O)N2[C@H](c3ccc4c(c3)OCO4)c3[nH]c4ccccc4c3C[C@@H]2C1=O: inactive

Single results of other studies
COc1cc(-c2cn(C3CCc4c(F)cccc4N(CC(F)(F)F)C3=O)nn2)ccc1-n1cnc(C)c1 (stereo not drawn) — pIC50 (sodium channel site 2; radioligand binding): 6.00
O=c1oc2c(cc1O)oc(=O)c1cc(O)c(O)c(O)c12 — pKi (LDHA (Homo sapiens, UniProt P00338); enzyme activity, inhibitor; added: NADH competition): 4.25
Cc1nc(N2CC[C@@H](O)C2)ncc1-c1cc(C(F)(F)F)cc2[nH]ncc12 — pIC50 (METAP2 (human); enzyme activity; Co(II) enzyme): 7.51
C#Cc1cccc(Nc2ncnc3cc(OCCOC)c(OCCOC)cc23)c1 — exposure ratio (human, healthy volunteers; added: rifampicin; reference: with over without rifampicin): 0.3 fold
C[C@H](NC(=O)c1cnc2n1[C@](C)(Cc1ccc(C#N)cc1)C(=O)N2c1cc(Cl)c(F)c(Cl)c1)C(=O)NC1(c2ccccn2)CC1 — pKd (ITGAL; biochemical): 8.05
O=C(NCc1ncc(C(F)(F)F)cc1Cl)c1ccc2c(c1)C1(CCS(=O)(=O)CC1)[C@@H](C1CC1)N2S(=O)(=O)c1ccc(F)cc1 — pIC50 (MAPK14; enzyme activity, Eurofins-Panlabs panel): 4.97
